Published values gathered from unrelated publications.
Every numbered part comes from another study and shows a few of its results, in no order.

Sample 1
Target: RNA binding protein fox-1 homolog 2, RRM domain, GST-SBP tag (RBFOX2, Homo sapiens, UniProt O43251-10, residues 100-194)
Method: RNA Bind-n-Seq
Form: RNA
Sample: in vitro
Concentration: 365 nM
Setting: natural RNA segment, single round, ends assumed
Reference: no-protein control
Direction: higher = stronger binding
Quantity: RBNS enrichment (R)
Shared flanks, not repeated: GGGAGUUCUACAGUCCGACGAUC … UGGAAUUCUCGGGUGCCAA
Sequence = UGGGAAUCUUCAGAACCCCCCUGUAAGAGACAGACAUGAGAGACAAGCAUCUUCUUUCCCCCGCAAGUCCAUUUUAUUUCCUUCUUGUGCUGCUCUGGAAGAGAGGCAGU; result = 3.26
Sequence = CCCCUGGGGCAGGGCAGGGGGCAGGGAGAGACAAGGCUGCUGCUAUUAGAGCCCAUCCUGGAGCCCCACCUCUGAACCACCUCCUACCAGCUGUCCCUCAGGCUGGGGGA; result = 0.611
Sequence = UUUCUUUUGCCUCCGAGAUGACCAAAUGCACUUGUGUCUUCUGUUUGUUGCUUGUUGAGUAAGCAGCUGGCACGCCUGUGGAGGAGGAGGCCUUGCCUCAACGUUCCUGG; result = 4.71
Sequence = AGACAAGUGUUUGUAGACUCUGAAGCCUAAUGUUACUCAUGACGUUUGCCUCAUUGCUUUGCUUAUUUAGCAAAUGCAUACAACGAGGAAAGGAGGUGGCUAGUGGUAUC; result = 0.403
Sequence = AAAGGAGAUUCCUCAGACUCAUCCAGCCCUUGGGUGCUGACCAGCAGAGUCACUAGUGGAUGCUGAAGUUACAUGAGCUACAUGUUAAAUAUUUAAAGUCUCCAAAAUAA; result = 0.43
Sequence = GCCGGCGCGGGGAGGAAAGCAAAAUCCAACUAAUGGUAUAUAUUGUAGGGUACAGAAUAGAGCGUGUGCUGUUGAUAAUAUCUCUCACCCGGAUCCCUCCUCACUUGCCC; result = 0.593
Sequence = AAGUUCUCUCCUGCUGUGGUCAGAGUUGCUUCGAUGUUGGCCAAGUGCUUUUCUUCUUGGGCUCCCUUCUGACCUGCAGGACAGUUUUCCUGGAGCCAUUUGGUAUGAGG; result = 0.533
Sequence = AAAGGGAUAUAUAUGAGAAGUGAUUACUCCAAAGAAUAUUAAUCUUAAAAGAAAGCAGUAUAGAUGUCUUACCAUGAAAUACAUUACUCUAGGCUAAAAUUUCAACUGUU; result = 0.552

Sample 2
Target: Prothrombin, mature alpha-thrombin (F2, Homo sapiens, UniProt P00734)
Method: aptamer microarray, sandwich
Form: DNA with 2'F-ANA
Sample: in vitro
Concentration: 200 nM
Setting: whole 15-mer aptamer, many near background
Added: Cy3 exosite-II aptamer, 400 nM
Direction: higher = stronger binding
Quantity: mean fluorescence intensity
Sequence: GGTTGGTGTGGTTGG
Modification = 2'F-ANA at 1 4 5 6 8 10 11 13 15; result = 48.7 a.u.
Modification = 2'F-ANA at 1 3 4 6 9 11 12 14; result = 67.8 a.u.
Modification = 2'F-ANA at 4 10 12 14; result = 60.4 a.u.
Modification = 2'F-ANA at 1 2 3 4 5 6 7 8 9 10 11 12 15; result = 58.6 a.u.
Modification = 2'F-ANA at 2 3 4 5 6 7 10 11 12; result = 54.3 a.u.
Modification = 2'F-ANA at 1 4 7 12 13; result = 212 a.u.
Modification = 2'F-ANA at 1 3 8 9 11 15; result = 298 a.u.
Modification = 2'F-ANA at 4 5 8 9 11 12 13 14 15; result = 76.5 a.u.
Modification = 2'F-ANA at 2 3 5 7 11 12 15; result = 153 a.u.
Modification = 2'F-ANA at 2 4 5 8 9 13 14; result = 42.4 a.u.
Modification = 2'F-ANA at 5 9 10 11 12 13 15; result = 118 a.u.
Modification = 2'F-ANA at 1 3 4 5 6 9 11 15; result = 52.1 a.u.
Modification = 2'F-ANA at 1 2 3 4 5 6 7 9 10 11 12 14 15; result = 51.9 a.u.
Modification = 2'F-ANA at 1 3 4 9 11 13 15; result = 127 a.u.
Modification = 2'F-ANA at 1 3 5 7 8 9 10 12 14; result = 49.5 a.u.
Modification = 2'F-ANA at 1 3 4 5 6 8 10 11 12 13 14 15; result = 68.4 a.u.

Sample 3
Target: Sal-like protein 4, full length isoform B (SALL4, Homo sapiens, UniProt Q9UJQ4-2, residues 1-616)
Method: universal PBM
Form: double-stranded DNA, one strand shown
Sample: in vitro
Concentration: not given
Setting: 8-mer, flanks averaged, mean of replicates
Direction: higher = stronger binding
Quantity: E-score
Sequence = CGGTAAAC; result = -0.00388
Sequence = CATCGCGA; result = -0.0998
Sequence = CCAATAAA; result = 0.287
Sequence = AGCCCCCT; result = -0.24
Sequence = CAAGTGCA; result = -0.0223
Sequence = ACAGAGGC; result = -0.0913
Sequence = CCTATCCG; result = -0.218
Sequence = TCGGGGCA; result = -0.139
Sequence = AGCGTCAT; result = 0.0228
Sequence = GTATGCAA; result = 0.133
Sequence = CATTACGG; result = -0.0792
Sequence = AACTAGGT; result = -0.0259
Sequence = AACGGTTA; result = 0.122
Sequence = TACCTACA; result = 0.128
Sequence = GGTGTAAA; result = -0.0616
Sequence = ACAGCCAC; result = -0.11
Sequence = TTGGAAAA; result = 0.225
Sequence = GCACTGTA; result = -0.0923
Sequence = AAGCAGAG; result = 0.0221
Sequence = CGCAGAAG; result = -0.174

Sample 4
Target: Phosphate system positive regulatory protein PHO4, full length, GST-tagged (PHO4, Saccharomyces cerevisiae, UniProt P07270, residues 1-312)
Method: competition protein-binding microarray
Form: double-stranded DNA, one strand shown
Sample: in vitro
Concentration: 2 µM
Setting: whole 60-bp probe, lowest competitor level
Added: Cbf1 competitor, 0.05 µM
Direction: higher = stronger binding
Quantity: fluorescence intensity
Shared flanks, not repeated: … GTCTTGATTCGCTTGACGCTGCTG
Residues (chain): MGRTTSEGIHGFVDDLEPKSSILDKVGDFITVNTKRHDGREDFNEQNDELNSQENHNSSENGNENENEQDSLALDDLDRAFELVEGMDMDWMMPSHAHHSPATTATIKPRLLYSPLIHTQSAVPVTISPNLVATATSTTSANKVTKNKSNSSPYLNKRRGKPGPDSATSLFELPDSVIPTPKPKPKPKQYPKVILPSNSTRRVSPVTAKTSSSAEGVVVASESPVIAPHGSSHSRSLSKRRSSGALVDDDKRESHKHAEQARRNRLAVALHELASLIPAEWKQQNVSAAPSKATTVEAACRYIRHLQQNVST
Sequence = CAGCGCTAAGGACATGCCGTGATGGCATCAACCGGC; result = 4620 a.u.
Sequence = CCTTTTCTGGAGGTACATGTGCGCCCCTGATGAAGA; result = 11900 a.u.
Sequence = TAATTGATTGGTTACCACGTAAATTCTTGAGCCTTT; result = 3850 a.u.
Sequence = CAGTCACCGTTTGGTAGATAACGACCTAAATCACCC; result = 3970 a.u.
Sequence = AGCTTGTTTATCTTGCACATGGCAAGGCCATCGCGG; result = 8960 a.u.
Sequence = AAAGCGGTAATTTTTCACGTGATGTCAAATATCTAT; result = 12300 a.u.
Sequence = TAACATCGCATACATCATGTTTAGGAGGCTTGAACA; result = 6080 a.u.
Sequence = CAGCTGGTTCTAACTCAGCTGATGGAACCTGCTTTC; result = 2580 a.u.
Sequence = ATGAATTACCTAACTCAGGTGACGGGGTGTTCAAAT; result = 4320 a.u.
Sequence = GTCCTAGATCAAAGACACCTGACGATGATAGCCATT; result = 4080 a.u.
Sequence = CATACCCAACCTTGATATGTGGGTGAAGATATTTGT; result = 4160 a.u.
Sequence = CTTCTGTAAATTTGTCACACGACTTGACGCGCCCCG; result = 5470 a.u.
Sequence = GAATTGTGGCCGCGACACCTGACAAACAATCCTCAG; result = 4390 a.u.
Sequence = GGGAATACAAACCTTGATGTGACGCTTTAGCCAATA; result = 3360 a.u.
Sequence = CGCTGTTACTTCTCGCGCGTGATGGGGTCAGCGAAG; result = 7060 a.u.
Sequence = ATTTTTATAATATCCAATAGAGTAGAGTTGTTACAT; result = 4140 a.u.
Sequence = TGCGCAACAACTTGCTAAGTGGGTGTATGTCTAGAA; result = 3650 a.u.
Sequence = AAAGCGGTAATTTTTCACGTGTAGTCAAATATCTAT; result = 14000 a.u.
Sequence = CGGGGTTAAGTTTGGAGCGTGGGTGGCTTGCAGCAG; result = 8550 a.u.
